Measured values gathered from unrelated publications.
Compare with care: the assays were run in different laboratories. ± gives the spread as reported.

CC(=O)N[C@H](CCCCNC(=O)C(C)F)C(=O)N[C@@H](CS)C(=O)N[C@@H](CS)C(=O)N[C@@H](CCC(=O)O)C(=O)N[C@@H](Cc1c[nH]cn1)C(=O)N[C@H](Cc1ccccc1)C(=O)N[C@@H](CCCNC(=N)N)C(=O)N[C@@H](Cc1c[nH]c2ccccc12)C(=O)N[C@@H](CS)C(=O)N[C@@H](CCCNC(=N)N)C(=O)N1CCC[C@H]1C(=O)N[C@H](C(N)=O)C(C)C (stereo partly drawn) [fluorine-18 labelled] — tissue uptake (C57BL/6 mice, male, B16-F10 tumour, spleen; intravenous, 1 h): 0.61 ± 0.05 %ID/g
CN[C@H](CC(C)C)C(=O)N[C@H]1C(=O)N[C@@H](CC(N)=O)C(=O)N[C@H]2C(=O)N[C@H]3C(=O)N[C@H](C(=O)N[C@H](C(=O)O)c4cc(O)cc(O)c4-c4cc3ccc4O)[C@H](O)c3ccc(c(Cl)c3)Oc3cc2cc(c3O[C@@H]2O[C@H](CO)[C@@H](O)[C@H](O)[C@H]2O[C@H]2C[C@](C)(N)[C@H](O)[C@H](C)O2)Oc2ccc(cc2Cl)[C@H]1O — GFR difference (iohexol clearance; male Sprague-Dawley rats; dose not given, day 1, bolus vs humanized infusion; reference: humanized infusion): 0.04 mL/min/100 g
CC1(C)S[C@@H]2[C@H](NC(=O)[C@H](C(=O)O)c3ccsc3)C(=O)N2[C@H]1C(=O)O — relative error (rat plasma; 30 ng/mL, three freeze-thaw cycles; reference: nominal concentration): -2%
CC(C)C[C@H](NC(=O)[C@H](Cc1ccccc1)NC(=O)CNC(=O)[C@H](NC(=O)[C@@H](N)Cc1ccc(O)cc1)[C@H](C)O)C(=O)N[C@@H](CO[C@@H]1O[C@H](CO)[C@@H](O[C@@H]2O[C@H](CO)[C@H](O)[C@H](O)[C@H]2O)[C@H](O)[C@H]1O)C(N)=O — dialysate level relative to leu-enkephalin (rat, dorsolateral striatum dialysate; ip, 10 mg/kg, 80 min): ~10 fold
Cc1c(P(=S)(c2ccccc2)c2ccccc2)n2ccccc2[n+]1C/C=C/c1ccccc1 — concentration (mouse, brain; intraperitoneal, 10 mg/kg, 12 h): 43 ng/g
c1cc2ccc3cccc4ccc(c1)c2c34 — tissue concentration (HPLC-fluorescence; Wistar rat, male, liver; oral, 4 mg/kg, 24 h): 18.4 ± 3.2 ng/g
CN[C@@](C)(C[18F])C(=O)O — tissue uptake (SCID mouse U87 xenograft, heart; 60 min, post injection): 4.5 ± 1 %ID/g
CNC(=O)c1ccc(-c2cnn3ccc(C(=O)N(C)c4ccc(Cl)c(C(=O)OC)c4)cc23)cc1 — AUC(0-8 h) (beagle dogs, both sexes, plasma; oral, 15 mg/kg/day, day 1, 2-week toxicology study): 63.4 ng·h/mL
CC[C@@]1(O)C(=O)OCc2c1cc1n(c2=O)Cc2cc3c(CN(C)C)c(O)ccc3nc2-1 — Cmax ratio (human patients, plasma; oral, 2.5 mg daily for 5 days, MTD arm, daily dosing, together with: pazopanib; reference: with pazopanib over alone): 1.86
CCCCCCCCCCNCCN[C@@]1(C)C[C@H](O[C@H]2[C@H](Oc3c4cc5cc3Oc3ccc(cc3Cl)[C@@H](O)[C@@H](NC(=O)[C@@H](CC(C)C)NC)C(=O)N[C@@H](CC(N)=O)C(=O)N[C@H]5C(=O)N[C@H]3C(=O)N[C@H](C(=O)N[C@H](C(=O)O)c5cc(O)c(CNCP(=O)(O)O)c(O)c5-c5cc3ccc5O)[C@H](O)c3ccc(c(Cl)c3)O4)O[C@H](CO)[C@@H](O)[C@@H]2O)O[C@@H](C)[C@H]1O — tissue concentration (perfused placental lobule tissue; 25 µg/mL, 240 min): 11000 ± 1000 ng/g
CCc1cccc(C)c1N(C(=O)CCl)C(C)COC (stereo not drawn) — remaining amount (LC-MS/MS; herbicide solution; 2 h, 23 °C, together with: 254 nm UV exposure): 51.7 ± 28.7%
O[C@H]1CCCN[C@@H]1CCCn1cnc2c(Cl)c(Cl)ccc21 — AUC(0-last) (human, plasma; oral, 100 mg single dose, capsule, geometric mean): 594 ng·h/mL

For quick reference, copied from above:
Cc1c(P(=S)(c2ccccc2)c2ccccc2)n2ccccc2[n+]1C/C=C/c1ccccc1 — concentration (mouse, brain; intraperitoneal, 10 mg/kg, 12 h): 43 ng/g
CC(=O)N[C@H](CCCCNC(=O)C(C)F)C(=O)N[C@@H](CS)C(=O)N[C@@H](CS)C(=O)N[C@@H](CCC(=O)O)C(=O)N[C@@H](Cc1c[nH]cn1)C(=O)N[C@H](Cc1ccccc1)C(=O)N[C@@H](CCCNC(=N)N)C(=O)N[C@@H](Cc1c[nH]c2ccccc12)C(=O)N[C@@H](CS)C(=O)N[C@@H](CCCNC(=N)N)C(=O)N1CCC[C@H]1C(=O)N[C@H](C(N)=O)C(C)C (stereo partly drawn) [fluorine-18 labelled] — tissue uptake (C57BL/6 mice, male, B16-F10 tumour, spleen; intravenous, 1 h): 0.61 ± 0.05 %ID/g
